Measurements collected from several papers.
Compare with care: the assays were run in different laboratories. Several values in a cell are separate wells, animals, samples, runs or records. ± marks the error that the study gave.
MAP2K6: Dual specificity mitogen-activated protein kinase kinase 6 (MAP2K6, Homo sapiens, UniProt P52564)
UniProt P52564, sequence (whole entry, looked up): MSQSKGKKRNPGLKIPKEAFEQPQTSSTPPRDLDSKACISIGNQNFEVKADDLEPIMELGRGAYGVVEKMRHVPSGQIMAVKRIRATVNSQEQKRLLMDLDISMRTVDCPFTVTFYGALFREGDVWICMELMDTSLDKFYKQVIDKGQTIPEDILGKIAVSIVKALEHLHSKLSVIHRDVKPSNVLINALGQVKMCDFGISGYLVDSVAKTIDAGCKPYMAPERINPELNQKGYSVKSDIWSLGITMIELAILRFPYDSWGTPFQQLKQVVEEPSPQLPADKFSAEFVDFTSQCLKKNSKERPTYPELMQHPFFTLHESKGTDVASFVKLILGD
UniProt Q14680, sequence (whole entry, looked up): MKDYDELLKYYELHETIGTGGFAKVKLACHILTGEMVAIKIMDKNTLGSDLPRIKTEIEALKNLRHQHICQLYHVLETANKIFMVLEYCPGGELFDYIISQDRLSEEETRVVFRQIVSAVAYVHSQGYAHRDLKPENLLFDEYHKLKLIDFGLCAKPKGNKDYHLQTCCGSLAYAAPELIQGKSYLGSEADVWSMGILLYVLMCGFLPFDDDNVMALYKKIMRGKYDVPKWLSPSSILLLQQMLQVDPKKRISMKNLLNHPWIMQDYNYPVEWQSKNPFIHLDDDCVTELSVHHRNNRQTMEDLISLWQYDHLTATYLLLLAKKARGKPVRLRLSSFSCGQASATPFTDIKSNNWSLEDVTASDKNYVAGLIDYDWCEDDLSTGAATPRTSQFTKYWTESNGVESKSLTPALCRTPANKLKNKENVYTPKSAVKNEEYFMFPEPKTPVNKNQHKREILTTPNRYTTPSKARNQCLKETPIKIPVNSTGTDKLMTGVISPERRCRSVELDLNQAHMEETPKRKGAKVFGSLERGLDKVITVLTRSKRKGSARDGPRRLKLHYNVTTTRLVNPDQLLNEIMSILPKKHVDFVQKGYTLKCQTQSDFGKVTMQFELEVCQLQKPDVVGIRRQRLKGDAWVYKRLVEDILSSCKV
UniProt Q13554, sequence (whole entry, looked up): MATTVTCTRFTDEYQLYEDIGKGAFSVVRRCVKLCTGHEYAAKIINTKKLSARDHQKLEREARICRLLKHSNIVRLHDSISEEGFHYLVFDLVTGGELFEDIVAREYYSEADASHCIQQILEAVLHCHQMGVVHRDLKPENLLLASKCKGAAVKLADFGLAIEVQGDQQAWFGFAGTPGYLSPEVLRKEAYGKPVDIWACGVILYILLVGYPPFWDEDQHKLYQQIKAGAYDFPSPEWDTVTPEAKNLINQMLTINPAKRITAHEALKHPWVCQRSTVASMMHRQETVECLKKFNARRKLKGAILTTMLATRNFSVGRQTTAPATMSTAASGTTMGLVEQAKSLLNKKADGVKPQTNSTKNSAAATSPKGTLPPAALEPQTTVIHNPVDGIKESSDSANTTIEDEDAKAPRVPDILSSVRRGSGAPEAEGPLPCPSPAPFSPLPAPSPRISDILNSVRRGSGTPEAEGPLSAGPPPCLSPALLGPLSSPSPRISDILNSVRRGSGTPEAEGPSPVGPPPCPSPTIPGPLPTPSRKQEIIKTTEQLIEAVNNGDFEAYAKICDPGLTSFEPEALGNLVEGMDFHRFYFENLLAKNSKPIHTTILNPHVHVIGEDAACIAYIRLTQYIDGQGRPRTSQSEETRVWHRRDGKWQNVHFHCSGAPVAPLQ

| Structure (SMILES) | tested on | assay | test system | conditions | how to read | endpoint | result |
| --- | --- | --- | --- | --- | --- | --- | --- |
| CN(C)C(=O)[C@@H](NC(=O)c1cc(-c2ccnn2C)ccc1-c1ccc(C(F)(F)F)cc1)c1cccc(C(F)(F)F)c1 | NKL effector, Ba/F3-ULBP2 target | NKG2D-mediated cell killing, inhibitor |  |  |  | IC50 | > 20 µM |
| COc1ccccc1-c1n[nH]c2nc(NC3CCN(C(=O)Cc4ccc(F)cc4F)CC3)ncc12 |  | bead binding, competition bead pull-down, refers to: LINJ.28.2430 | Leishmania donovani extract | 10 µM | relative to: vehicle | relative abundance | 1.18 |
| Cc1ccc(NS(=O)(=O)c2c(C(=O)N3CCCCCC3)c(C)n(C)c2C)c(Cl)c1 | CV-1 |  | African green monkey cells | 3.704 µM, 60 (unit not given) |  | viability | 100% and 92.3% |
| C[C@H]1[C@H](OC(=O)CCC(=O)OCCC2CCN(CC(=O)Nc3ccc([N+](=O)[O-])c(C(F)(F)F)c3)CC2)O[C@@H]2O[C@@]3(C)CC[C@H]4[C@H](C)CC[C@@H]1[C@@]24OO3 | IOSE-144 | cell growth or viability, CCK-8 |  |  |  | IC50 | > 50 µM |
| Fc1cccc(-n2cc(-c3ccccc3)nc2SCc2ccc(C(F)(F)F)cc2)c1 | HBE | ferroptotic cell death, inhibitor |  | with: erastin 10 µM |  | IC50 | 6.8 µM |
| CC1CCC2C(C)C(OC(=O)CCC(=O)N3CCN(CC(=O)Nc4ccc([N+](=O)[O-])c(C(F)(F)F)c4)CC3)OC3OC4(C)CCC1C32OO4 (stereo not drawn) | IOSE-144 | cell growth or viability, CCK-8 |  |  |  | IC50 | 4.22 µM |
| CC(C)[C@H]1NC(=O)C[C@H]2/C=C/CCSSC[C@@H](NC1=O)C(=O)N[C@H](Cc1cccc3ccccc13)C(=O)NCC(=O)O2 | MAP2K6 |  |  | 10 µM |  | inhibition | -0.643% |
| O=C1NC2(CC2)COc2ncc(F)cc2[C@H]2COCCN2c2ccn3ncc1c3n2 |  |  | Sprague-Dawley rat, female, serum | oral, 10 mg/kg/day, end of treatment, 4-week subacute toxicity |  | serum hepatic lipase activity | 3.8 ± 0.6 U/L |
| CC[C@H](C)[C@@H]([C@@H](CC(=O)N1CCC[C@H]1[C@H](OC)[C@@H](C)C(=O)N[C@H](C)[C@@H](O)c1ccccc1)OC)N(C)C(=O)[C@@H](NC(=O)[C@H](C(C)C)N(C)C(=O)OCc1ccc(NC(=O)[C@H](CCCNC(N)=O)NC(=O)[C@@H](NC(=O)CCCc2cn(CC(=O)NCCCC[C@H]3NC(=O)[C@H](CCCCN)NC(=O)[C@H](CCCNC(N)=O)NC(=O)[C@H](Cc4ccc(O)cc4)NC(=O)[C@@H](NC(=O)[C@H](Cc4ccc5ccccc5c4)NC(=O)[C@H](CCCNC(=N)N)NC(=O)[C@@H](N)CCCNC(=N)N)CSSC[C@@H](C(=O)N[C@@H](CCCNC(=N)N)C(N)=O)NC(=O)[C@H](CCCNC(N)=O)NC(=O)[C@H](CCCNC(=N)N)NC(=O)[C@H](Cc4ccc(O)cc4)NC(=O)[C@@H]4CCCN4C3=O)nn2)C(C)C)cc1)C(C)C | L02 | cell growth or viability, CCK-8 |  |  |  | IC50 | 3.44 µM |
| O[C@]12C=C(c3nccc4c3[nH]c3ccccc34)[C@@H]3CCN(CCCC/C=C\CC1)C[C@@]31C[C@@H]3/C=C\CCCCN3[C@H]12 | KB | cell growth or viability, neutral red |  | 48 h |  | IC50 | 1 µg/mL |
| Cc1cc(Oc2nc(N3CC[C@@H](c4ccncc4)C3)ncc2F)[nH]n1 | Squamous cancer cell lines | cell proliferation |  |  |  | IC50 | 61.7 µM |
| CN(C)[C@H]1C[C@@]23CC[C@@]4(O2)C(=CC[C@]2(C)[C@@H](c5ccc6ccncc6c5)CC[C@H]24)C=C3[C@@H](O)[C@@H]1O | Maternal embryonic leucine zipper kinase (MELK, Homo sapiens, UniProt Q14680) | ATP probe labelling, inhibitor, KiNativ profiling |  | 1 µM |  | inhibition | -1.2% |
| O=C1C=CC(=C(c2ccc(O)cc2)c2c(C#Cc3ccc(O)cc3)cccc2-c2ccc(O)cc2)C=C1 | HUVEC | cell growth or viability, MTT |  | 48 h |  | IC50 | > 50 µM |
| Cc1cc(C(=O)Nc2nc3cccc(C)c3n2[C@H]2CCCCN(C(=O)/C=C/CN(C)C)C2)ccn1 | Trypanosoma brucei | propidium iodide flow cytometry | bloodstream form | concentration not given, 8 h |  | cells in sub-G0 phase | 0.96% |
| CCC1(c2ccc(NC(=O)CCC(=O)OC3OC4OC5(C)CCC6C(C)CCC(C3C)C46OO5)cc2)CCC(=O)NC1=O (mixture of isomers) | IOSE-144 | cell growth or viability, CCK-8 |  |  |  | IC50 | 22 µM |
| Cc1sc2c(c1C)C(c1ccc(NC(=O)c3cc([N+](=O)[O-])ccc3F)cc1)=N[C@@H](CC(=O)OC(C)(C)C)c1nnc(C)n1-2 | MOLT-4 | cell growth or viability, ATP luminescence |  | 72 h |  | IC50 | 7e-06 µM |
| O=C1C=CC(=O)c2ccccc21 | HuCC-A1 | cell growth or viability, MTT |  |  |  | IC50 | 21.2 µM |

| Structure (SMILES) | tested on | assay | test system | conditions | how to read | endpoint | result |
| --- | --- | --- | --- | --- | --- | --- | --- |
| CC(C)(C)C(=O)OCOP(=O)(OCOC(=O)C(C)(C)C)C1CCCN(O)C1=O (stereo not drawn) | IGROV-1 |  |  |  |  | log GI50 | -6.41 log M |
| O=C1NC(=O)c2c1c1cc(F)c[n+]3c1c1c2c2cc(O)ccc2[n]1[Ru-4]312([N]=C=S)[S+]3CC[S+]1CC[S+]2CC3 (stereo not drawn) | MAP2K6 | enzyme activity |  | 100 nM, human enzyme, with: 10 µM ATP | relative to: untreated | remaining activity | 100% |
| CC[C@H](C)[C@H](NC(=O)[C@H](CO)NC(=O)[C@H](Cc1ccc(O)cc1)NC(=O)[C@H](Cc1ccc(O)cc1)NC(=O)[C@H](CC(N)=O)NC(=O)CNC(=O)[C@H](CO)NC(=O)[C@H](Cc1ccc(O)cc1)NC(=O)[C@H](CO)NC(=O)[C@H](CO)NC(=O)[C@H](CC(N)=O)NC(=O)COCCOCCNC(=O)CN1CCN(CC(=O)O)CCN(CC(=O)O)CCN(CC(=O)O)CC1)C(=O)N[C@@H](CC(C)C)C(N)=O [copper-64 labelled] |  | dynamic PET | KPC mouse Ptf1a-CreER tdTomato, metastases | intravenous, 4.6 MBq/mouse, 8.5 min, 84 d after tamoxifen |  | tissue uptake | 15.3 %ID/mL |
| CC(C)C12OC1C1OC13C1(C)CCC4=C(COC4=O)C1CC1OC13C2OC(=O)CCC(=O)OC1OC(CO)C(O)C(O)C1O (stereo not drawn) | HEK-293T | cell growth or viability, thymidine uptake |  | 24 h |  | IC50 | 0.279 µM |
| CSc1ccc2c(c1)c(CCN)c(C)n2Cc1ccc(Cl)cc1 | BV-2 | cell count, high-content imaging |  | geometric mean |  | IC50 | 3.55 µM |
| Cc1cc(Nc2nc(C[C@@]3(C(=O)O)CCN(Cc4cccc(Cl)c4F)[C@H](C)C3)cc(C)c2F)[nH]n1 | IMR-32 | cell growth or viability, ATP luminescence |  | 5 days |  | IC50 | 0.0113 µM |
| CCOc1ccccc1-n1c(CN2CCNCC2)nc2ccccc2c1=O | Panc 02.03 | cell growth or viability |  | 72 h |  | IC50 | 0.0555 µM |
| COc1ccccc1-c1n[nH]c2nc(N[C@H]3CC[C@H](NS(=O)(=O)CC(C)C)CC3)ncc12 |  | bead binding, competition bead pull-down, refers to: LINJ.25.2090 | Leishmania donovani extract | 10 µM | relative to: vehicle | relative abundance | 1.48 |
| c1cnc2c(c1)c1nccnc1c1cccnc12 | L02 | cell growth or viability, MTT |  | 48 h |  | IC50 | > 50 µM |
| CS(C)(=O)=Nc1ccc(-c2ccc(-c3nc4cc(O[C@@H]5CO[C@H]6[C@@H]5OC[C@H]6O)[nH]c4cc3F)cc2)cc1 | Calcium/calmodulin-dependent protein kinase type II subunit beta (CAMK2B, Homo sapiens, UniProt Q13554) | enzyme activity, inhibitor |  | 10 µM |  | inhibition | -5% |
| Cc1ccccc1/C=C/C(=O)N[C@H]1COC(=O)[C@H](CC(=O)O)NC(=O)[C@H]([C@@H](O)C(=O)c2ccccc2N)NC(=O)[C@@H](Cc2ccccc2)NC(=O)[C@@H](NC(=O)[C@@H](Cc2ccccc2)NC(=O)CN)[C@@H](C)OC1=O | SK-HEP1 |  |  |  |  | IC50 | > 20 µM |
| CC(=O)O[C@H]1C[C@@H](C)O[C@H]2O[C@@H]3C[C@@H]4CC[C@@H]5[C@H](CC[C@]6(C)[C@@H](C7=CC(=O)OC7)CC[C@]56O)[C@@]4(C)C[C@H]3O[C@]21O | L6 | cell growth or viability, resazurin |  | 72 h |  | IC50 | 1.02 µM |
| [CH3][Ti+2][O]C(=O)c1ccc([S][Au][PH](c2ccccc2)(c2ccccc2)c2ccccc2)cc1.c1cc[cH-]c1.c1cc[cH-]c1 | HEK-293T | cell growth or viability, XTT |  | 24 h |  | IC50 | 1.67 µM |
| CC(C)C12OC1C1OC13C1(C)CCC4=C(COC4=O)C1CC1OC13C2OC(=O)CCCOC1OC(CO)C(O)C(O)C1O (stereo not drawn) | SK-MEL-1 | cell growth or viability, XTT |  | 47 h |  | IC50 | 3.44 µM |
| Cc1ccccc1/C=C/C(=O)N[C@@H]1C(=O)N[C@@H](Cc2ccccc2)C(=O)N[C@H](CC(C)C)C(=O)N[C@@H](C(C)C)C(=O)N[C@@H](C)C(=O)N[C@H](CCC(N)=O)C(=O)NCC(=O)N2CCC[C@H]2C(=O)N[C@@H](CCCNC(=N)N)C(=O)N[C@H](Cc2ccccc2)C(=O)O[C@H]1C | SK-HEP1 |  |  |  |  | IC50 | > 20 µM |
| CSc1ccc2c(c1)c(CCN)c(C)n2Cc1ccccc1Cl | BV-2 | nuclear intensity, high-content imaging |  | geometric mean |  | IC50 | 4.98 µM |

For quick reference, copied from above:
| Structure (SMILES) | tested on | assay | test system | conditions | how to read | endpoint | result |
| --- | --- | --- | --- | --- | --- | --- | --- |
| c1cnc2c(c1)c1nccnc1c1cccnc12 | L02 | cell growth or viability, MTT |  | 48 h |  | IC50 | > 50 µM |
| O=C1C=CC(=O)c2ccccc21 | HuCC-A1 | cell growth or viability, MTT |  |  |  | IC50 | 21.2 µM |
| O[C@]12C=C(c3nccc4c3[nH]c3ccccc34)[C@@H]3CCN(CCCC/C=C\CC1)C[C@@]31C[C@@H]3/C=C\CCCCN3[C@H]12 | KB | cell growth or viability, neutral red |  | 48 h |  | IC50 | 1 µg/mL |
